{"data": "Published values pooled from the literature", "note": "A part holds a random share of what one study measured.", "sequence of UniProt P51957 (whole entry, looked up)": "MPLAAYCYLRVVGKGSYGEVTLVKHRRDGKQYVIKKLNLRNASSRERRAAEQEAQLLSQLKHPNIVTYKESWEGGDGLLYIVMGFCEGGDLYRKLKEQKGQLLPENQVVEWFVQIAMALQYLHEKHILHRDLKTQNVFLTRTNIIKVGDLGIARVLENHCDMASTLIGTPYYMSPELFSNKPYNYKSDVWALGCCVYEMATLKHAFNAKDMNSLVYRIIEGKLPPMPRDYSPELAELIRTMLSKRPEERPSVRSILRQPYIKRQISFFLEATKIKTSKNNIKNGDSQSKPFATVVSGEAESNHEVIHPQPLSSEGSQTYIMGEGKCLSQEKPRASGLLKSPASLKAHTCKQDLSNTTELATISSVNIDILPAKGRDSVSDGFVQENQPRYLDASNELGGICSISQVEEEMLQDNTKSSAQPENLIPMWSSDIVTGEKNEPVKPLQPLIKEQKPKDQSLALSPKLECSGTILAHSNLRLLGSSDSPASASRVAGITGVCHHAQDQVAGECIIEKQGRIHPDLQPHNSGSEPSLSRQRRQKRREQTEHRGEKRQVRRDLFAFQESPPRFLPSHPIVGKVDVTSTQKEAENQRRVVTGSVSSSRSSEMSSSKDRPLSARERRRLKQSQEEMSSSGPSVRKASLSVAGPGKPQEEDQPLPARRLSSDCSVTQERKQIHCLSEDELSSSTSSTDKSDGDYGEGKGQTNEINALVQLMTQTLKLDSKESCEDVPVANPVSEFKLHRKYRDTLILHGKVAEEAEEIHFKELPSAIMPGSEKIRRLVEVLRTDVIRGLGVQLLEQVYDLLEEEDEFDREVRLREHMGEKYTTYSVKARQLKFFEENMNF", "sequence of UniProt P07948 (whole entry, looked up)": "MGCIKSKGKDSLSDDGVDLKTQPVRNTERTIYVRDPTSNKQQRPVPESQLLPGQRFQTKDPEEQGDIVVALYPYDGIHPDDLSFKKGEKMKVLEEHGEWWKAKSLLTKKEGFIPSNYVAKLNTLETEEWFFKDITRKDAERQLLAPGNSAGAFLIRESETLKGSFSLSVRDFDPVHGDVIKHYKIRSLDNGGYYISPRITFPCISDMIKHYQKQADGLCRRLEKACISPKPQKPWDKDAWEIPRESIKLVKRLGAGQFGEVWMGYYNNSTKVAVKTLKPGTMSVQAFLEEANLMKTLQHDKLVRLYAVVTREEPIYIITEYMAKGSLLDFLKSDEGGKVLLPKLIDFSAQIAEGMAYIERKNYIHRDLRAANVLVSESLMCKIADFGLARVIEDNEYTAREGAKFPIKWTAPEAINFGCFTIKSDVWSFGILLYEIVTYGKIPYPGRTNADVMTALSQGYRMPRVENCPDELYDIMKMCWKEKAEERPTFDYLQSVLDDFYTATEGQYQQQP", "sequence of UniProt Q15208 (whole entry, looked up)": "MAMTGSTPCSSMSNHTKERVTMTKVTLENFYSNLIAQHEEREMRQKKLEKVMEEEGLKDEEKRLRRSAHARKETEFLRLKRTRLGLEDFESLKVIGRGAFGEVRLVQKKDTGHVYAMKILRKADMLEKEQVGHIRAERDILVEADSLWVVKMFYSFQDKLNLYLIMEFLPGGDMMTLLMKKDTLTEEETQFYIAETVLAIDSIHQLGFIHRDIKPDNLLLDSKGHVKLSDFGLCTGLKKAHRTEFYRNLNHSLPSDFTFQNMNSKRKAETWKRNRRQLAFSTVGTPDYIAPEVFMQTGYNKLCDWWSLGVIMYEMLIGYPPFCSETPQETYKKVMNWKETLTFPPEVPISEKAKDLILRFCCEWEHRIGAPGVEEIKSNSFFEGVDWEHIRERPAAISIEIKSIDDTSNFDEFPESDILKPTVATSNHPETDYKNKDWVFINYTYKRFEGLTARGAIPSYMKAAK", "sequence of UniProt Q9NYY3 (whole entry, looked up)": "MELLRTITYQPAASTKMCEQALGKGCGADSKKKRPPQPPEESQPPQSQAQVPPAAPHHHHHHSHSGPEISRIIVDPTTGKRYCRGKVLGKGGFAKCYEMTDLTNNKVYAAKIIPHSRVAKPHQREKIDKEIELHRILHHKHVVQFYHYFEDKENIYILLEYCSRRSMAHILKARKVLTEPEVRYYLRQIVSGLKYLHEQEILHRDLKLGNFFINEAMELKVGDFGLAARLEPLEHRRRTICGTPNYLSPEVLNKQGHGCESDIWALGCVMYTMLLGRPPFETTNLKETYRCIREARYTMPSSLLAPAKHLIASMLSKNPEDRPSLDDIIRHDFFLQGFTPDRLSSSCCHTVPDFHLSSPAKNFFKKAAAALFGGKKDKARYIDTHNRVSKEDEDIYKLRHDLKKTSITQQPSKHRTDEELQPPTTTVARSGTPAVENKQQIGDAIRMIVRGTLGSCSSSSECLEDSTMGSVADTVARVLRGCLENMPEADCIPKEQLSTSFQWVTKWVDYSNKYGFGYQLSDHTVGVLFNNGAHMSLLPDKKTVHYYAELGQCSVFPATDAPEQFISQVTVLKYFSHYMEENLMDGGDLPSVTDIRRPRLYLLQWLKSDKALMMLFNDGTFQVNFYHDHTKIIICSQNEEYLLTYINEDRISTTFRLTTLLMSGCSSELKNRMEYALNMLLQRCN", "sequence of UniProt P19525 (whole entry, looked up)": "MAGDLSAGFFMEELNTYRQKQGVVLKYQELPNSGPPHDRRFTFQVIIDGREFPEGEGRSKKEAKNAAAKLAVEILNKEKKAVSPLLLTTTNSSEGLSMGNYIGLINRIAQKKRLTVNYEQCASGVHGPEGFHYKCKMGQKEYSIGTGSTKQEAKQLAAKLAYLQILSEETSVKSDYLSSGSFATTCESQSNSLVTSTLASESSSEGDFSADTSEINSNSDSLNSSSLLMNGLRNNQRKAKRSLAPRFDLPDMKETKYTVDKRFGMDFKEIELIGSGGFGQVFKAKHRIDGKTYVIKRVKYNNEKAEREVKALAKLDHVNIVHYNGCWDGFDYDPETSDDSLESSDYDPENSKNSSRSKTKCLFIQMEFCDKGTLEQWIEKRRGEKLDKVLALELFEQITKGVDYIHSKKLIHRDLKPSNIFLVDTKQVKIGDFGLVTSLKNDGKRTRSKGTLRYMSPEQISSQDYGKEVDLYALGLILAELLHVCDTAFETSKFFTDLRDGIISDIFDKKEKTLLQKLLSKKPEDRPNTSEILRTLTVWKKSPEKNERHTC", "sequence of UniProt P57059 (whole entry, looked up)": "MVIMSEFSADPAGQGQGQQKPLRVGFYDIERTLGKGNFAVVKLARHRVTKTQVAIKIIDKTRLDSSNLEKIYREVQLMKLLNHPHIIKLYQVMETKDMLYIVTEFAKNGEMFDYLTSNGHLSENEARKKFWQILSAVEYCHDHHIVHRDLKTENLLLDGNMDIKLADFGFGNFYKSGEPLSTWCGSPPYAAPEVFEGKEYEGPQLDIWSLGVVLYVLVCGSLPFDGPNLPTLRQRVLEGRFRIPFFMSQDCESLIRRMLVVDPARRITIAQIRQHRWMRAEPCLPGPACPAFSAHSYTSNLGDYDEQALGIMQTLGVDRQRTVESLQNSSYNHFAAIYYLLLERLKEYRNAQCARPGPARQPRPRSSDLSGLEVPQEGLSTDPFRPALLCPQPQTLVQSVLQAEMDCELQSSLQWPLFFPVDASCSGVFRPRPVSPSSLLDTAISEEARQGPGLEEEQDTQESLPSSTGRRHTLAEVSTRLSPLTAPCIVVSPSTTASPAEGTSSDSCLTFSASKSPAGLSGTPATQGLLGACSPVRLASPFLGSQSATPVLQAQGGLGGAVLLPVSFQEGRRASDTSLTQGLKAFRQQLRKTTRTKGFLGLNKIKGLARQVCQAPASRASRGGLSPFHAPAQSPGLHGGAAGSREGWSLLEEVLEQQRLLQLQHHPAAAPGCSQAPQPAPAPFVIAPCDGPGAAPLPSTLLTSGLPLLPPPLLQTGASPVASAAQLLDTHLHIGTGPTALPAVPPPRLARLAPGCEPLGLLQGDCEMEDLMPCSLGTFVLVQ", "sequence of UniProt Q8TD08 (whole entry, looked up)": "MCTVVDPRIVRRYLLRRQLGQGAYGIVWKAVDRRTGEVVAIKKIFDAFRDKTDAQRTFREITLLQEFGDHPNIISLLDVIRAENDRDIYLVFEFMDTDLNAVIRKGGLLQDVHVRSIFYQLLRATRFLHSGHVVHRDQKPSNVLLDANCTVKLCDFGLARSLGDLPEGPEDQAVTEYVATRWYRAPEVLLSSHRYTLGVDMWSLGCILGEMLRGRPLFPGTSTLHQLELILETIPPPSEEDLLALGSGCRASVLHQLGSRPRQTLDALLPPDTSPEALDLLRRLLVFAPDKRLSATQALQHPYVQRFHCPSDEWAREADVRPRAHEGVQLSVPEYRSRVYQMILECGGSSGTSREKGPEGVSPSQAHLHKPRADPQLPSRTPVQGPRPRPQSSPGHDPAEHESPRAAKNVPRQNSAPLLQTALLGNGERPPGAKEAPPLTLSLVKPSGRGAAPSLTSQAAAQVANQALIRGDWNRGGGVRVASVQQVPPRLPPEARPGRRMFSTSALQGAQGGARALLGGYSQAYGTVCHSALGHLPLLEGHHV", "sequence of UniProt O14757 (whole entry, looked up)": "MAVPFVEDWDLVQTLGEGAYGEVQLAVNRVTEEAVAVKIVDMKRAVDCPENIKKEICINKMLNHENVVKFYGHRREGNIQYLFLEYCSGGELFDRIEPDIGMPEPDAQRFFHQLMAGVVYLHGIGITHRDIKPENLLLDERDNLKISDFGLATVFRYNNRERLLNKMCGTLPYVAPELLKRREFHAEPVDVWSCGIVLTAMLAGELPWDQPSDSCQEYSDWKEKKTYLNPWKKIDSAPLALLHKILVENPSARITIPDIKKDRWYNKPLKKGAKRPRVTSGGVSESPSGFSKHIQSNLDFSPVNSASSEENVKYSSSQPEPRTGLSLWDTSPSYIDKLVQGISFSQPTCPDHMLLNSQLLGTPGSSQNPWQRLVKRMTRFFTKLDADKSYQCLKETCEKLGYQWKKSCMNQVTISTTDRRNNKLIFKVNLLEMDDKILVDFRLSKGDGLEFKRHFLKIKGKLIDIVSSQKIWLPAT"}
{"data": "Sample 1", "organism": "Plasmodium berghei", "action": "inhibitor", "cells": "Huh-7", "strain": "liver stage", "concentration": "10 µM", "time": "24 h", "baseline": "untreated control"}
{"SMILES": "Cc1cccc(C)c1NC(=O)C1CCCCN1C (stereo not shown)", "infection rate": "96.7%"}
{"SMILES": "CN1CCN(C2=Nc3ccccc3Oc3ccc(Cl)cc32)CC1", "infection rate": "102%"}
{"SMILES": "CC(COc1ccccc1)NC(C)C(O)c1ccc(O)cc1 (stereo not shown)", "infection rate": "79%"}
{"SMILES": "Nc1nnc(-c2cccc(Cl)c2Cl)c(N)n1", "infection rate": "96.8%"}
{"SMILES": "CCN(CC)CCOC(=O)[C@H](Cc1cccc2ccccc12)C[C@H]1CCCO1", "infection rate": "76.2%"}
{"SMILES": "c1ccc2c(CC3=NCCN3)cccc2c1", "infection rate": "96.5%"}
{"SMILES": "COc1c(N2C[C@@H]3CCCN[C@@H]3C2)c(F)cc2c(=O)c(C(=O)O)cn(C3CC3)c12", "infection rate": "93.8%"}
{"SMILES": "CC(=O)/N=c1/sc(S(N)(=O)=O)nn1C", "infection rate": "106%"}
{"data": "Sample 2", "SMILES": "CNc1cc2c(Nc3cccc(Br)c3)ncnc2cn1", "observed": "enzyme activity", "action": "inhibitor", "concentration": "0.5 µM", "baseline": "control"}
{"target": "MAP3K10 (Homo sapiens, UniProt Q02779)", "remaining activity [%]": 90.1}
{"target": "CHEK1 (Homo sapiens, UniProt O14757)", "remaining activity [%]": 108}
{"target": "STK38 (Homo sapiens, UniProt Q15208)", "remaining activity [%]": 98.5}
{"target": "PRKCI (Homo sapiens, UniProt P41743)", "remaining activity [%]": 96.4}
{"target": "KIT (Homo sapiens, UniProt P10721)", "remaining activity [%]": 86.4}
{"target": "MAPK13 (Homo sapiens, UniProt O15264)", "remaining activity [%]": 102}
{"target": "IRAK4 (Homo sapiens, UniProt Q9NWZ3)", "remaining activity [%]": 82.6}
{"target": "Cyclin-dependent kinase 9, with cyclin T1 (CDK9, Homo sapiens, UniProt P50750)", "remaining activity [%]": 106}
{"target": "AKT3 (Homo sapiens, UniProt Q9Y243)", "remaining activity [%]": 103}
{"target": "MAP4K2 (Homo sapiens, UniProt Q12851)", "remaining activity [%]": 74.8}
{"target": "LYN (Homo sapiens, UniProt P07948)", "remaining activity [%]": 63.9}
{"target": "BTK (Homo sapiens, UniProt Q06187)", "remaining activity [%]": 94.7}
{"target": "NEK4 (Homo sapiens, UniProt P51957)", "remaining activity [%]": 94.9}
{"target": "EPHA5 (Homo sapiens, UniProt P54756)", "remaining activity [%]": 106}
{"target": "CSNK2A1 (Homo sapiens, UniProt P68400)", "remaining activity [%]": 94.3}
{"target": "PRKCD (Homo sapiens, UniProt Q05655)", "remaining activity [%]": 94.7}
{"target": "CSNK1A1 (Homo sapiens, UniProt P48729)", "remaining activity [%]": 125}
{"target": "MKNK2 (Homo sapiens, UniProt Q9HBH9)", "remaining activity [%]": 32.3}
{"target": "LRRK2 (Homo sapiens, UniProt Q5S007)", "remaining activity [%]": 67}
{"target": "MAP2K6 (Homo sapiens, UniProt P52564)", "remaining activity [%]": 94.5}
{"target": "MAPK12 (Homo sapiens, UniProt P53778)", "remaining activity [%]": 93.6}
{"target": "PLK2 (Homo sapiens, UniProt Q9NYY3)", "remaining activity [%]": 97.5}
{"data": "Sample 3", "SMILES": "CNCc1ccccc1-c1csc([C@H](C)Nc2nc(C)nc3cc(OC)c(OC)cc23)c1", "concentration": "1 µM"}
{"target": "CAMK2A (Homo sapiens, UniProt Q9UQM7)", "observed": "cell-free assay", "technique": "competition with immobilised ligand", "remaining binding [%]": 100}
{"target": "NEK4 (Homo sapiens, UniProt P51957)", "observed": "cell-free assay", "technique": "competition with immobilised ligand", "remaining binding [%]": 83}
{"target": "FLT3 (Homo sapiens, UniProt P36888, R834Q)", "observed": "cell-free assay", "technique": "competition with immobilised ligand", "remaining binding [%]": 82}
{"target": "STK24 (Homo sapiens, UniProt Q9Y6E0)", "observed": "cell-free assay", "technique": "competition with immobilised ligand", "remaining binding [%]": 100}
{"target": "TSSK1B (Homo sapiens, UniProt Q9BXA7)", "observed": "cell-free assay", "technique": "competition with immobilised ligand", "remaining binding [%]": 93}
{"target": "LIM domain kinase 2 (LIMK2, Homo sapiens, UniProt P53671)", "observed": "cell-free assay", "technique": "competition with immobilised ligand", "remaining binding [%]": 100}
{"target": "MATK (Homo sapiens, UniProt P42679)", "observed": "cell-free assay", "technique": "competition with immobilised ligand", "remaining binding [%]": 51}
{"target": "SBK1 (Homo sapiens, UniProt Q52WX2)", "observed": "cell-free assay", "technique": "competition with immobilised ligand", "remaining binding [%]": 100}
{"target": "MAP3K11 (Homo sapiens, UniProt Q16584)", "observed": "cell-free assay", "technique": "competition with immobilised ligand", "remaining binding [%]": 100}
{"target": "MAPK15 (Homo sapiens, UniProt Q8TD08)", "observed": "cell-free assay", "technique": "competition with immobilised ligand", "remaining binding [%]": 100}
{"target": "EIF2AK2 (Homo sapiens, UniProt P19525)", "observed": "cell-free assay", "technique": "competition with immobilised ligand", "remaining binding [%]": 100}
{"target": "SIK1 (Homo sapiens, UniProt P57059)", "technique": "competition binding", "remaining binding [%]": 100}
{"target": "BRSK1 (Homo sapiens, UniProt Q8TDC3)", "observed": "cell-free assay", "technique": "competition with immobilised ligand", "remaining binding [%]": 89}
{"data": "Sample 4", "observed": "AlphaScreen signal", "technique": "AlphaScreen counter screen", "matrix": "His6 peptide without bromodomain", "concentration": "50 µM", "notes": "assay interference check"}
{"SMILES": "O=C1c2c(O)ccc(O)c2C(=O)c2c(NCCCO)ccc(NCCCO)c21", "inhibition [%]": 86}
{"SMILES": "Cc1cc(C=C2C(=O)C=CC2=O)cc(C)c1O", "inhibition [%]": 14.7}
{"SMILES": "CCOC(=O)CNC(=O)CSc1ccc2nnc(-c3cccc(F)c3)n2n1", "inhibition [%]": -1.8}
{"SMILES": "C[C@]12O[C@H](C[C@]1(O)CO)n1c3ccccc3c3c4c(c5c6ccccc6n2c5c31)CNC4=O", "inhibition [%]": 18.1}
{"SMILES": "Cc1ccnc(NC(=O)c2n[nH]c3ccccc23)c1", "inhibition [%]": 5.9}
{"SMILES": "Cc1nc(-c2ccccn2)nc(NCCNc2cc(C(F)(F)F)ccn2)c1Cl", "inhibition [%]": 17.8}
{"note": "Repeated from above (sample 3):"}
{"target": "EIF2AK2 (Homo sapiens, UniProt P19525)", "observed": "cell-free assay", "technique": "competition with immobilised ligand", "remaining binding [%]": 100}
{"target": "STK24 (Homo sapiens, UniProt Q9Y6E0)", "observed": "cell-free assay", "technique": "competition with immobilised ligand", "remaining binding [%]": 100}
{"target": "LIM domain kinase 2 (LIMK2, Homo sapiens, UniProt P53671)", "observed": "cell-free assay", "technique": "competition with immobilised ligand", "remaining binding [%]": 100}
{"target": "SBK1 (Homo sapiens, UniProt Q52WX2)", "observed": "cell-free assay", "technique": "competition with immobilised ligand", "remaining binding [%]": 100}
{"target": "CAMK2A (Homo sapiens, UniProt Q9UQM7)", "observed": "cell-free assay", "technique": "competition with immobilised ligand", "remaining binding [%]": 100}
{"target": "BRSK1 (Homo sapiens, UniProt Q8TDC3)", "observed": "cell-free assay", "technique": "competition with immobilised ligand", "remaining binding [%]": 89}
